Results gathered from unrelated publications.
Lines come from different studies, so protocols differ. ± marks the error that the study gave.

| Structure (SMILES) | cell line | assay | system | setting | scale | endpoint | value |
| --- | --- | --- | --- | --- | --- | --- | --- |
| CC[C@H](C)[C@H](NC(=O)[C@H](CCCCN)NC(=O)[C@H](C)NC(=O)[C@H](CCCNC(=N)N)NC(=O)[C@H](CCCCN)NC(=O)[C@H](CC(N)=O)NC(=O)[C@H](CCC(N)=O)NC(=O)[C@H](Cc1ccccc1)NC(=O)[C@H](Cc1c[nH]c2ccccc12)NC(=O)[C@@H](NC(=O)[C@H](CCCCN)NC(=O)[C@@H](NC(=O)[C@H](CCC(N)=O)NC(=O)[C@H](CO)NC(=O)CNC(=O)CNC(=O)CNC(=O)CNC(=O)CCCC[C@@H]1SC[C@@H]2NC(=O)N[C@@H]21)[C@@H](C)CC)[C@@H](C)CC)C(=O)N[C@@H](CCCCN)C(=O)N[C@@H](CCCCN)C(N)=O | CHO pgsA-745 GAG-deficient | MALDI-TOF MS | – | 7 µM, 1 h, 37 °C | baseline: CHO-K1 and SK-OV-3 over pgsA-745 | internalization ratio | 3 |
| Cc1c(Br)cnc2c1NC(=O)c1cccnc1N2C1CC1 | pooled primary human hepatocytes | inducer, qPCR, refers to: CYP2B6 | – | 25 µM, 72 h | baseline: DMSO | mRNA fold change | 25 fold |
| CC(=N)N1CC23C4C=CC5C4C4C2C=CC4C53C1 | dog cells | cytotoxicity | – | 3 (unit not given) | – | CC50 | 52 µM |
| Clc1cc2oc3c(Cl)c(Cl)c(Cl)cc3c2cc1Cl | Caco-2 monolayer | GC-HRMS | static Transwell | 0.2 ng/mL, 24 h, 1% DMSO, congener mixture | – | mass balance | 82 ± 2% |
| O=C1Nc2ccccc2C1=NN=Cc1ccc(F)cc1 | HUVEC | MTT | – | 24 and 48 h, 50% cell death | – | cytotoxic concentration | 50 to 500 µg/mL |
| Clc1cc2c(cc1Cl)Oc1c(cc(Cl)c(Cl)c1Cl)O2 | Caco-2 monolayer | GC-HRMS | gut-on-a-chip | 0.2 ng/mL, 24 h, 1% DMSO | – | mass balance | 92 ± 6% |
| CC[C@H](C)[C@H](N)C1=N[C@H](C(=O)N[C@@H](CC(C)C)C(=O)N[C@H](CCC(=O)O)C(=O)N[C@H](C(=O)N[C@H]2CCCCNC(=O)[C@H](CC(N)=O)NC(=O)[C@@H](CC(=O)O)NC(=O)[C@H](Cc3c[nH]cn3)NC(=O)[C@@H](Cc3ccccc3)NC(=O)[C@H](Cc3ccccc3)NC(=O)[C@@H](CCCN)NC2=O)[C@@H](C)CC)CS1 | sheep red blood cells | – | – | 128 µg/mL, 20 h, 37 °C | baseline: Triton X-100 0.1% | hemolysis | 0% |
| CC(C)C[C@H](NC(=O)[C@H](CCCNC(=N)N)NC(=O)[C@H](Cc1ccccc1)NC(=O)[C@H](Cc1ccccc1)NC(=O)[C@@H](N)[C@@H](C)O)C(=O)N[C@@H](Cc1ccccc1)C(=O)N[C@@H](CC(N)=O)C(=O)N[C@@H](CCCNC(=N)N)C(=O)N[C@@H](C)C(=O)N[C@@H](CCCCN)C(=O)N[C@@H](CCCNC(=N)N)C(=O)N[C@@H](Cc1c[nH]cn1)C(=O)N[C@@H](Cc1c[nH]cn1)C(=O)NCC(=O)N[C@@H](Cc1ccc(O)cc1)C(=O)N[C@@H](CCCCN)C(=O)N[C@@H](CCCNC(=N)N)C(=O)N[C@@H](CCCCN)C(=O)N[C@@H](Cc1ccccc1)C(=O)N[C@@H](Cc1c[nH]cn1)C(=O)O | MC3T3-E1 | CCK-8 | – | up to 2 × MBC, 24 h | baseline: untreated | cell viability | no effect |
| Clc1c(Cl)c(Cl)c2c(oc3c(Cl)c(Cl)c(Cl)c(Cl)c32)c1Cl | Caco-2 monolayer | GC-HRMS | static Transwell | 0.2 ng/mL, 24 h, 1% DMSO, congener mixture | – | mass balance | 79 ± 2% |
| CN1CC23C4C=CC5C4C4C2C=CC4C53C1 | dog cells | cytotoxicity | – | 3 (unit not given) | – | CC50 | ≥ 74 µM |
| CCCCn1cc(C(=O)O)c(=O)c2cc(F)c3c(nnn3-c3ccccc3Cl)c21 | SW480 | cell growth, SRB | – | 72 h | – | IC50 | 278 ± 11.6 µg/mL |
| C[C@@H]1NC(=O)CN(C(=O)c2ccccn2)CCCC[C@@H](C(N)=O)NC(=O)[C@@H]2CCCN2C(=O)[C@H](CCC(=O)NCCOCCOCCCCCCCl)NC(=O)[C@H](Cc2ccccc2)NC1=O | HaloTag-expressing cells | cell permeability | – | – | – | CP50 | 67.6 µM |
| O=C(Cc1csc2nc(-c3ccc(Br)cc3)cn12)NN=C1CCCC1 | HEL human embryonic lung fibroblast | microscopy of cell morphology | – | – | – | minimum cytotoxic concentration | > 100 µg/mL |
| C#CC[C@H](NC(=O)CNC(=O)[C@H](CO)NC(=O)[C@@H]1CCCCNC(=O)CCCC(=O)N[C@@H](CCSC)C(=O)N[C@@H](Cc2c[nH]c3ccccc23)C(=O)N2CCC[C@H]2C(=O)N[C@@H](Cc2c[nH]cn2)C(=O)N[C@@H](CCCNC(=N)N)C(=O)N[C@@H](C(C)C)C(=O)N[C@@H]([C@@H](C)O)C(=O)N[C@@H](C)C(=O)N(C)[C@@H](C)C(=O)N1)C(=O)O | HeLa HaloTag-GFP-Mito | chloroalkane penetration | – | 4 h | baseline: compound over non-N-methylated variant | cytosolic access ratio | ~3 fold |
| CCCCCCCCCCCCCC(=O)N[C@@H](CCCCN)C(=O)N[C@@H](CCCCN)C(N)=O | HeLa CCL-2 | MTS | – | 50 µM | – | cell death | 50% |
| CCN(CC)CC12C3CCC4C3C3C(CCC31)C42 | dog cells | cytotoxicity | – | 3 (unit not given) | – | CC50 | 47 µM |

| Structure (SMILES) | cell line | assay | system | setting | scale | endpoint | value |
| --- | --- | --- | --- | --- | --- | --- | --- |
| CCCCCCCCCCCCCCCC(=O)OCC(CSC[C@H](N)C(=O)N[C@@H](CO)C(=O)N[C@@H](CCCCN)C(=O)N[C@@H](CCCCN)C(=O)N[C@@H](CCCCN)C(=O)N[C@@H](CCCCN)C(=O)NCCCCCC(=O)N[C@@H](CCCCN)C(=O)N[C@@H](CC(C)C)C(=O)N[C@H](C(=O)N[C@@H](Cc1ccccc1)C(=O)N[C@@H](Cc1ccccc1)C(=O)N[C@@H](Cc1ccc2ccccc2c1)C(=O)O)C(C)C)OC(=O)CCCCCCCCCCCCCCC (stereo partly shown) | BV-2 | RT-qPCR, refers to: iNOS | – | 1.0 µM | – | mRNA level | increased |
| CC[C@@H](C)[C@H]1NC(=O)[C@H]([C@@H](C)CC)NC(=O)[C@@H](CCCN)NC(=O)[C@@H](NC(=O)[C@@H](NC(=O)[C@@H](CCC(=O)O)NC(=O)[C@H](CC(C)C)NC(=O)[C@@H]2CSC([C@@H](N)[C@@H](C)CC)=N2)[C@@H](C)CC)CCCCNC(=O)[C@H](CC(N)=O)NC(=O)[C@@H](CC(=O)O)NC(=O)[C@H](Cc2c[nH]cn2)NC1=O | sheep red blood cells | – | – | 128 µg/mL, 20 h, 37 °C | baseline: Triton X-100 0.1% | hemolysis | 0% |
| CCCCn1cc(C(=O)O)c(=O)c2cc(F)c(Nc3ccccc3Cl)c(N)c21 | SW480 | cell growth or viability, SRB | – | – | – | IC50 | 77.4 µM |
| O=C1/C(=N\NC(=S)NN=Cc2cccs2)c2ccccc2N1Cc1ccccc1 | HEL | cell morphology | – | – | – | minimum cytotoxic concentration | 100 µM |
| CC(C)[C@@H]1NC(=O)CNC(=O)[C@H](CC(N)=O)NC(=O)[C@H](CCCNC(=N)N)NC(=O)[C@H](Cc2ccc(O)cc2)NC(=O)[C@H](C(C)C)NC(=O)[C@@H](NC(=O)[C@@H](NC(=O)[C@H](CC(N)=O)NC(=O)[C@H](Cc2c[nH]c3ccccc23)NC(=O)[C@H](C)NC(=O)[C@H](Cc2ccccc2)NC(=O)CNC(=O)[C@H](CCCCN)NC(=O)[C@H](Cc2ccccc2)NC(=O)[C@H](Cc2ccccc2)NC(=O)[C@H](CCCCN)NC(=O)OCC2c3ccccc3-c3ccccc32)C(C)C)CSSC[C@@H](C(=O)N[C@@H](Cc2c[nH]cn2)C(=O)N[C@@H](CCCNC(=N)N)C(=O)N[C@@H](CCCNC(=N)N)C(=O)N[C@@H](C)C(=O)N[C@@H](CC(N)=O)C(N)=O)NC(=O)[C@H](C(C)C)NC(=O)[C@H](CCCNC(=N)N)NC1=O | MAC-T | CCK-8 | – | up to 128 µM, 12 h | – | viability | > 90% |
| CCCCn1cc(C(=O)O)c(=O)c2cc(F)c(Nc3ccccc3Cl)c([N+](=O)[O-])c21 | HT-29 | cell growth, SRB | – | 72 h | – | IC50 | 82.8 ± 2.96 µg/mL |
| CCC1(CC)C2CC3CC(C2)CC1(NC)C3 | dog cells | cytotoxicity | – | 3 (unit not given) | – | CC50 | > 100 µM |
| CCCCCCCCCCCCCC(=O)Nc1ccccc1SSc1ccccc1NC(=O)CCCCCCCCCCCCC | HaCaT | MTT | – | concentration not given | – | cytotoxicity | not toxic |
| CCCCn1cc(C(=O)O)c(=O)c2cc(F)c3c(nnn3-c3cccc(Cl)c3)c21 | SW480 | cell growth, SRB | – | 72 h | – | IC50 | 63 ± 7.47 µg/mL |
| Clc1c(Cl)c(Cl)c2c(c1Cl)Oc1c(Cl)c(Cl)c(Cl)c(Cl)c1O2 | Caco-2 monolayer | GC-HRMS | gut-on-a-chip | 0.2 ng/mL, 24 h, 1% DMSO | – | mass balance | 100 ± 8% |
| CCN(CCCCOc1ccc(CCC(=O)N2CCC(Cc3ccccc3)CC2)cc1OC)Cc1ccccc1 | Caco-2 monolayer | – | – | 120 min, over tested concentrations | – | Papp(A-B) | 7.99 to 8.84 ×10⁻⁶ cm/s |
| O=C(CCc1ccccc1)NOC(=O)OCc1ccccc1 | MCF7 | – | – | 100 µM | – | viability | > 85% |
| C=Cc1c(C)c2cc3nc(c(CC(=O)O)c4[nH]c(cc5nc(cc1[nH]2)C(C)=C5CC)c(C)c4C(=O)O)[C@@H](CCC(=O)NCCCC[C@H](NC(C)=O)C(=O)N[C@@H](Cc1ccccc1)C(=O)N[C@@H](Cc1ccccc1)C(=O)N[C@H](C(=O)N[C@@H](CC(C)C)C(=O)N[C@@H](CCCCN)C(=O)N[C@@H](CO)C(=O)NCC(=O)N[C@@H](CCC(N)=O)C(=O)N[C@@H](Cc1ccc(O)cc1)C(=O)N[C@@H](C)C(=O)N[C@@H](CO)C(=O)N[C@@H](Cc1ccc(O)cc1)C(=O)N[C@@H](Cc1c[nH]cn1)C(=O)N[C@@H](CS)C(=O)N[C@@H](Cc1c[nH]c2ccccc12)C(=O)N[C@@H](CS)C(=O)N[C@@H](Cc1c[nH]c2ccccc12)C(=O)N[C@@H](CCCNC(=N)N)C(=O)N[C@@H](CC(=O)O)C(=O)N1CCC[C@H]1C(=O)NCC(=O)N[C@@H](CCCNC(=N)N)C(=O)N[C@@H](CO)C(=O)NCC(=O)NCC(=O)N[C@@H](CO)C(=O)N[C@@H](CCCCN)C(N)=O)C(C)C)[C@@H]3C | HFF | confocal microscopy | – | 50 µM, together with: endocytosis inhibitors | – | cellular uptake | inhibited |
| CCCCn1cc(C(=O)O)c(=O)c2cc(F)c(Nc3cccc(Cl)c3)c([N+](=O)[O-])c21 | HT-29 | cell growth or viability, SRB | – | – | – | IC50 | 58.8 µM |
| C#CC[C@H](NC(=O)CNC(=O)[C@H](CO)NC(=O)[C@@H]1CCCCNC(=O)CCCC(=O)N[C@@H](CCSC)C(=O)N[C@@H](Cc2c[nH]c3ccccc23)C(=O)N2CCC[C@H]2C(=O)N[C@@H](Cc2c[nH]cn2)C(=O)N[C@@H](CCCNC(=N)N)C(=O)N[C@@H](C(C)C)C(=O)N[C@@H]([C@@H](C)O)C(=O)N[C@@H](C)C(=O)N[C@@H](C)C(=O)N1)C(=O)O | HeLa HaloTag-GFP-Mito | cell penetration, chloroalkane penetration | – | 4 h | – | CP50 | 3.58 ± 0.79 µM |

Excerpt of the above:
| Structure (SMILES) | cell line | assay | system | setting | scale | endpoint | value |
| --- | --- | --- | --- | --- | --- | --- | --- |
| CCCCCCCCCCCCCC(=O)N[C@@H](CCCCN)C(=O)N[C@@H](CCCCN)C(N)=O | HeLa CCL-2 | MTS | – | 50 µM | – | cell death | 50% |
| CCN(CC)CC12C3CCC4C3C3C(CCC31)C42 | dog cells | cytotoxicity | – | 3 (unit not given) | – | CC50 | 47 µM |
| CCCCCCCCCCCCCCCC(=O)OCC(CSC[C@H](N)C(=O)N[C@@H](CO)C(=O)N[C@@H](CCCCN)C(=O)N[C@@H](CCCCN)C(=O)N[C@@H](CCCCN)C(=O)N[C@@H](CCCCN)C(=O)NCCCCCC(=O)N[C@@H](CCCCN)C(=O)N[C@@H](CC(C)C)C(=O)N[C@H](C(=O)N[C@@H](Cc1ccccc1)C(=O)N[C@@H](Cc1ccccc1)C(=O)N[C@@H](Cc1ccc2ccccc2c1)C(=O)O)C(C)C)OC(=O)CCCCCCCCCCCCCCC (stereo partly shown) | BV-2 | RT-qPCR, refers to: iNOS | – | 1.0 µM | – | mRNA level | increased |
| CC[C@@H](C)[C@H]1NC(=O)[C@H]([C@@H](C)CC)NC(=O)[C@@H](CCCN)NC(=O)[C@@H](NC(=O)[C@@H](NC(=O)[C@@H](CCC(=O)O)NC(=O)[C@H](CC(C)C)NC(=O)[C@@H]2CSC([C@@H](N)[C@@H](C)CC)=N2)[C@@H](C)CC)CCCCNC(=O)[C@H](CC(N)=O)NC(=O)[C@@H](CC(=O)O)NC(=O)[C@H](Cc2c[nH]cn2)NC1=O | sheep red blood cells | – | – | 128 µg/mL, 20 h, 37 °C | baseline: Triton X-100 0.1% | hemolysis | 0% |
